Published values collected from several papers.
Parts stem from different laboratories: compare values within a part only. Substitutions count along the parent as printed.

Series 1 — method: DHFR PCA, deep sequencing; medium: yeast; added: (+)-ABA 1.4 µM; relative to: wild-type fitted maximum; direction: higher = stronger binding
Target: ABI1, truncated, D143A, DHFR fusion (Arabidopsis thaliana)
Notes: methotrexate growth selection, single substitutions
Starting sequence: PYL1, truncated, DHFR fusion (Arabidopsis thaliana); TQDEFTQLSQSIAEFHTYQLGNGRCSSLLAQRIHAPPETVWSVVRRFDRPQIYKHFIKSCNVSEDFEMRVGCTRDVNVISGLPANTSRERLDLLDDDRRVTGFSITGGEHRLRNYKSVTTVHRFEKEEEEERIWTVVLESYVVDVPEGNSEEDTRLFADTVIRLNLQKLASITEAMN; partner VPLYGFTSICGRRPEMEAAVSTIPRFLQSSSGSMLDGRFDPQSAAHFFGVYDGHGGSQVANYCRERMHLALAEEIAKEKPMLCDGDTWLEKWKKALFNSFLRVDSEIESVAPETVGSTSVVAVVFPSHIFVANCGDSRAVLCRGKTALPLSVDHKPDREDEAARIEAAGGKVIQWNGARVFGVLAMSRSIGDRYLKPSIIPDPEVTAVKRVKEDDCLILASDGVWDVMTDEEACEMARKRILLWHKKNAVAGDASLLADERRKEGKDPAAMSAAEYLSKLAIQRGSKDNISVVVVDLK
| Variant | relative binding score [%] |
| --- | --- |
| S63F | 12.4 |
| I12D | -10.9 |
| L156F | 8.32 |
| N114R | 8.15 |
| G71R | -0.532 |
| L138M | 32.5 |

Series 2 — target: human cyclin B2; read-out: peptide binding; method: yeast competitive growth sequencing; form: peptide; organism: Saccharomyces cerevisiae; strain: cyclin B2-Cln2 fusion; tested at: concentration not given; notes: peptide tiling library; direction: direction not given
| Molecule | binding enrichment score |
| --- | --- |
| NESHLDKEHDAVEVAD | -0.258 |
| SNFFDVIKQLFSDEKN | -0.877 |
| HRRRLLFACSPPPASQ | -0.487 |
| KVRRNLFNQELLSP | 0.221 |
| GPVKLEFDVSDGAT | -0.285 |

Series 3 — method: protein-binding microarray; form: double-stranded DNA, one strand shown; medium: in vitro; tested at: not given; direction: higher = stronger binding
Target: Transcription factor Sp1 (SP1, Homo sapiens, UniProt P08047, residues 1-785, full length assumed)
Sequence of UniProt P08047 (whole entry, looked up): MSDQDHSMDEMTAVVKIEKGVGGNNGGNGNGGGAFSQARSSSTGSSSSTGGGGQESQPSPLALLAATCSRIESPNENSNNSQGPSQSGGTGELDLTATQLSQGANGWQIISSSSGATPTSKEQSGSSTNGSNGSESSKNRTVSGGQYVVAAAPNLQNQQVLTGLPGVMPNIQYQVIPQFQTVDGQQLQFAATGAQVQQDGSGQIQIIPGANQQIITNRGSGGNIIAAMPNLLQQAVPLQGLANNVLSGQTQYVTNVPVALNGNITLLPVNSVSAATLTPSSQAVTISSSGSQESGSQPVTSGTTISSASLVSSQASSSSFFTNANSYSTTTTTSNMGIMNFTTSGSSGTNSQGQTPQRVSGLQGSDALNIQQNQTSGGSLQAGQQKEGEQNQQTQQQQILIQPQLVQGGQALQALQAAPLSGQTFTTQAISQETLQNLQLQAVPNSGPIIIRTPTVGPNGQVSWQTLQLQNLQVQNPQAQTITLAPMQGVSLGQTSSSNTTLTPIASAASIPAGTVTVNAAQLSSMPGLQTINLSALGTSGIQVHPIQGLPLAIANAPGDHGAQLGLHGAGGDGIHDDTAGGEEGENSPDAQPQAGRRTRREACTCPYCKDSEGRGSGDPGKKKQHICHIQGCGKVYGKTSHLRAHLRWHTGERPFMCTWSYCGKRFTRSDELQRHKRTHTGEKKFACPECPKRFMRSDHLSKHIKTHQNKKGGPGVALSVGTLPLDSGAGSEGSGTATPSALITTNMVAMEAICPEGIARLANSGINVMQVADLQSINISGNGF
Notes: k-mer, scored over probes, only values ≥0.25
| Strand | E-score |
| --- | --- |
| CACCCCGC | 0.321 |
| GGCCATAA | 0.25 |
| ATGTTACC | 0.254 |
| GTGTGTAA | 0.265 |
| TACGTTGA | 0.294 |
| ACGAGGGG | 0.257 |

Other studies, line by line
| Substance | target | test | system | conditions | how to read | endpoint | result |
| --- | --- | --- | --- | --- | --- | --- | --- |
| PhoQ, residues 284 288 289 292 302 303 SLANKL | PhoP, residues 12 14 15 18 19 NNFVT (Escherichia coli, UniProt P23836) | Sort-seq, measured: YFP reporter | E. coli | PhoQ-PhoP variant library, added: 10 µM Mg2+ | relative to: high Mg2+ state, higher = stronger signaling | fold induction | 14.7 |

A few entries again (series 2):
| Molecule | binding enrichment score |
| --- | --- |
| KVRRNLFNQELLSP | 0.221 |
| SNFFDVIKQLFSDEKN | -0.877 |
| GPVKLEFDVSDGAT | -0.285 |
